{"data": "Published values collected from several papers", "note": "Protocols differ between the studies behind these lines. Values joined by “and” are separate records of one study, mostly repeats; a detail may differ. ± gives the spread as reported."}
{"SMILES": "CC[n+]1cccc2cc(/C=N/NC(=O)c3ccc4ccc5ccc(C(=O)N/N=C/c6ccc7c(ccc[n+]7CC)c6)nc5c4n3)ccc21", "target or system": "hp2 hairpin duplex DNA", "assay": "FRET melting", "conditions": "1 µM, with: ds26 10 µM", "quantity": "ΔTm", "result": "1 ± 0.3 °C"}
{"SMILES": "NC[C@@H](C(=O)Nc1ccc(-c2cn[nH]c2)cc1)c1ccccc1", "assay": "tonometry", "test system": "NZW rabbit, magnetic bead-induced ocular hypertension", "conditions": "ocular, 0.1%, 30 h", "quantity": "IOP", "result": "28.4 mmHg"}
{"SMILES": "COC1OC(C)C(OS(=O)(=O)O)C(OC2OC(C)C(OS(=O)(=O)O)C(OC3OC(C)C(OS(=O)(=O)O)C(OS(=O)(=O)O)C3OS(=O)(=O)O)C2OS(=O)(=O)O)C1OS(=O)(=O)O (stereo not drawn)", "test system": "human plasma", "conditions": "128 µg/mL", "quantity": "prothrombin time", "result": "15.2 ± 0.5 s"}
{"SMILES": "OCC1OC(n2cnc3c(NCc4ccc(Br)s4)ncnc32)C(O)C1O (stereo not drawn)", "assay": "FDG-PET", "test system": "wild-type mouse", "conditions": "oral, 3 mg/kg, 2 h", "quantity": "cortex and hippocampus glucose metabolism", "result": "increased"}
{"SMILES": "COC1OC(C)C(O)C(OC2OC(C)C(O)C(OC3OC(C)C(O)C(OC4OC(C)C(O)C(OC5OC(C)C(O)C(OC6OC(C)C(O)C(OC7OC(C)C(O)C(OC8OC(C)C(O)C(OC9OC(C)C(O)C(OS(=O)(=O)O)C9OS(=O)(=O)O)C8OS(=O)(=O)O)C7OS(=O)(=O)O)C6OS(=O)(=O)O)C5OS(=O)(=O)O)C4OS(=O)(=O)O)C3OS(=O)(=O)O)C2OS(=O)(=O)O)C1OS(=O)(=O)O (stereo not drawn)", "test system": "human plasma", "conditions": "128 µg/mL", "scale": "relative to: control", "quantity": "prothrombin time prolongation", "result": "1 fold"}
{"SMILES": "COC1CN([C@H]2CC[C@H]([C@@]3(C)Oc4c(Cl)cc(C(=O)NCc5c(SC)cc(C)[nH]c5=O)c(C)c4O3)CC2)C1", "assay": "RNA-seq, item: N4BP3 mouse homolog", "test system": "mouse, HT-1376 xenograft, whole blood", "conditions": "dose not given", "scale": "relative to: vehicle", "quantity": "log2 fold change", "result": 0.411}
{"SMILES": "CC(C)C[C@H](NC(=O)[C@H](CC(=O)O)NC(=O)CNC(=O)[C@@H](N)CCCNC(=N)N)C(=O)N[C@@H](C)C(=O)N[C@H](C(=O)N[C@@H](CC(C)C)C(=O)N[C@@H](CCCNC(=N)N)C(=O)N[C@@H](CCC(N)=O)C(=O)N[C@@H](CC(C)C)C(=O)N[C@@H](C)C(=O)N[C@@H](CCC(N)=O)C(=O)N[C@@H](CCC(=O)O)C(=O)N[C@@H](CC(=O)O)C(=O)NCC(=O)N[C@H](C(=O)N[C@H](C(=O)NCC(=O)N[C@H](C(=O)N[C@@H](CCCNC(=N)N)C(=O)NCCOCCOCCOCCOCCOCCOCCOCCOCCOCCOCCOCCOCCC(=O)N[C@@H](CS)C(N)=O)C(C)C)C(C)C)C(C)C)[C@@H](C)O", "assay": "ex vivo NIR imaging", "test system": "NOD/SCID mice, xenograft, H2009 xenograft", "conditions": "intravenous, 30 µg, 24 h", "scale": "relative to: H460 xenograft", "quantity": "fluorescence signal ratio", "result": "21.5 and 49.5 and 20.8"}
{"SMILES": "COC1OC(C)C(OS(=O)(=O)O)C(OC2OC(C)C(OS(=O)(=O)O)C(OC3OC(C)C(OS(=O)(=O)O)C(OC4OC(C)C(OS(=O)(=O)O)C(OC5OC(C)C(OS(=O)(=O)O)C(OC6OC(C)C(OS(=O)(=O)O)C(OS(=O)(=O)O)C6O)C5O)C4O)C3O)C2O)C1O (stereo not drawn)", "test system": "human plasma", "conditions": "128 µg/mL", "scale": "relative to: control", "quantity": "prothrombin time prolongation", "result": "1 fold"}
{"SMILES": "CN1CCC[C@]1(C)/C=C/S(=O)(=O)NC(=O)Nc1c2c(cc3c1CCC3)CCC2", "test system": "human, whole blood ex vivo", "conditions": "100 mg twice daily, day 1, 12 h, multiple ascending dose, with: LPS and ATP", "quantity": "IL-18 inhibition", "result": "90.7%"}
{"SMILES": "CC(=O)[O-].O.O.O.O.[Co+2].[O-]c1ccc(Br)cc1C=NCCN1CCOCC1", "assay": "DPPH radical scavenging", "conditions": "200 µM", "quantity": "inhibition", "result": "64.2%"}
{"SMILES": "COC1OC(C)C(OC2OC(C)C(OS(=O)(=O)O)C(OC3OC(C)C(OC4OC(C)C(OS(=O)(=O)O)C(OC5OC(C)C(OC6OC(C)C(OS(=O)(=O)O)C(OC7OC(C)C(OS(=O)(=O)O)C(OS(=O)(=O)O)C7O)C6O)C(OS(=O)(=O)O)C5O)C4O)C(OS(=O)(=O)O)C3O)C2O)C(OS(=O)(=O)O)C1O (stereo not drawn)", "test system": "human plasma", "conditions": "128 µg/mL", "scale": "relative to: control", "quantity": "prothrombin time prolongation", "result": "1 fold"}
{"SMILES": "CC(C)(C)NCC(SS(=O)(=O)O)c1ccccc1 (stereo not drawn)", "test system": "Schistosoma mansoni-infected mice", "conditions": "600 mg/kg single, day 15, perfusion day 44", "quantity": "liver weight", "result": "1.76 g"}
{"SMILES": "COC1OC(C)C(OC2OC(C)C(OS(=O)(=O)O)C(OS(=O)(=O)O)C2O)C(OS(=O)(=O)O)C1O (stereo not drawn)", "test system": "human plasma", "conditions": "128 µg/mL", "quantity": "prothrombin time", "result": "15.2 ± 0.2 s"}
{"SMILES": "Nc1nc2cc(CC[C@H]3C[C@@H](n4ccc5c(N)ncnc54)[C@H](O)[C@@H]3O)ccc2cc1Br", "test system": "mouse, NCI-H1048 xenograft", "conditions": "oral, 10 mg/kg, day 28, 7 days on/7 off, 2 cycles", "quantity": "tumour growth inhibition", "result": "67.4%"}
{"SMILES": "CN1CCCNC(=O)c2cccc(c2)C(=O)NCCCN(C)CCCNc2cccc3c2C(=O)c2cccc(c2C3=O)NCCC1", "test system": "SAS xenograft, KSN/Slc nude mice", "conditions": "dose not given, day 0", "quantity": "tumour volume", "result": "101 mm3 and 63.5 mm3 and 87.1 mm3 and 60 mm3"}
{"SMILES": "CN(C)c1ncnc2c1ncn2[C@@H]1O[C@H](CCl)[C@@H](NC(=O)[C@H](CSC23CC4CC(CC(C4)C2)C3)NC(=O)OC(C)(C)C)[C@H]1O", "assay": "protein synthesis, item: GFP", "test system": "human cell-free translation", "conditions": "25 µM", "quantity": "inhibition", "result": "22.1%"}
{"SMILES": "Oc1cc2c(cc1O)C(c1ccc3[nH]ccc3c1)NCC2 (stereo not drawn)", "assay": "ABTS scavenging", "conditions": "10 min, dark", "quantity": "IC50", "result": "12.8 µM"}
{"SMILES": "COc1cc(O)ccc1CCC(c1ccc(O)cc1)c1cc2c(c(C)c1O)OC(c1ccc(O)cc1)CC2 (mixture of isomers)", "assay": "item: 12-HEPE", "test system": "human whole blood", "conditions": "1 µM, with: A23187", "quantity": "amount", "result": "152 ± 18 pg/mL blood"}
{"SMILES": "COC1OC(C)C(OS(=O)(=O)O)C(OC2OC(C)C(OS(=O)(=O)O)C(OC3OC(C)C(OS(=O)(=O)O)C(OC4OC(C)C(OS(=O)(=O)O)C(OC5OC(C)C(OS(=O)(=O)O)C(OS(=O)(=O)O)C5OS(=O)(=O)O)C4OS(=O)(=O)O)C3OS(=O)(=O)O)C2OS(=O)(=O)O)C1OS(=O)(=O)O (stereo not drawn)", "test system": "human plasma", "conditions": "128 µg/mL", "quantity": "prothrombin time", "result": "15.2 ± 0.2 s"}
{"SMILES": "CC(C)N1C/C(=C\\c2cc(Cl)c(O)c(Cl)c2)C(=O)/C(=C/c2cc(Cl)c(O)c(Cl)c2)C1", "assay": "ABTS scavenging", "conditions": "20 min", "quantity": "IC50", "result": "57.8 µg/mL"}
{"SMILES": "Cc1cnc2nc1Nc1cccc(c1)COC/C=C/COCc1cc(ccc1OCCN1CCOCC1)N2", "test system": "BALB/c mice rhEPO-induced polycythemia", "conditions": "100 mg/kg", "quantity": "hematocrit", "result": "51.9% and 44.3% and 48.1% and 46.4% and 45.5% and 44.4%"}
{"SMILES": "COC1OC(C)C(O)C(OC2OC(C)C(O)C(OC3OC(C)C(O)C(OC4OC(C)C(O)C(OS(=O)(=O)O)C4OS(=O)(=O)O)C3OS(=O)(=O)O)C2OS(=O)(=O)O)C1OS(=O)(=O)O (stereo not drawn)", "test system": "human plasma", "conditions": "128 µg/mL", "quantity": "prothrombin time", "result": "14.8 ± 0.1 s"}
{"SMILES": "CCC(CC)n1c(Cc2cccs2)nc2cc(C(=O)N[C@@H](CC(=O)O)c3ccccc3)ccc21", "test system": "mouse, HFpEF model (HFD plus L-NAME)", "conditions": "ip, 20 mg/kg/day, 2 wk", "quantity": "lung wet/dry weight ratio", "result": "decreased"}
{"SMILES": "CCC(=O)N[C@@H](C)C(=O)OCC(=O)N[C@@H](C)C(=O)O", "test system": "water", "conditions": "pH 3, 37 °C", "quantity": "chain scission rate constant", "result": "0.0005 h⁻¹"}
{"SMILES": "COc1ccc(NC(=O)c2ccc3[nH]c(-c4ccc(N(C)C)cc4)nc3c2)cn1", "test system": "CT26, BALB/c nude mice, subcutaneous graft", "conditions": "dose not given, day 14", "quantity": "tumour volume", "result": "1100 mm3 and 2150 mm3 and 2430 mm3 and 2140 mm3 and 2110 mm3 and 1820 mm3"}
{"SMILES": "COC1OC(C)C(OC2OC(C)C(OS(=O)(=O)O)C(OC3OC(C)C(OC4OC(C)C(OS(=O)(=O)O)C(OC5OC(C)C(OC6OC(C)C(OS(=O)(=O)O)C(OC7OC(C)C(OC8OC(C)C(OS(=O)(=O)O)C(OS(=O)(=O)O)C8O)C(OS(=O)(=O)O)C7O)C6O)C(OS(=O)(=O)O)C5O)C4O)C(OS(=O)(=O)O)C3O)C2O)C(OS(=O)(=O)O)C1O (stereo not drawn)", "test system": "human plasma", "conditions": "128 µg/mL", "scale": "relative to: control", "quantity": "prothrombin time prolongation", "result": "0.94 fold"}
{"SMILES": "CC[n+]1cccc2cc(/C=N/NC(=O)c3cccc(C(=O)N/N=C/c4ccc5c(ccc[n+]5CC)c4)c3)ccc21", "target or system": "MYC parallel G4 DNA", "assay": "FRET melting", "conditions": "1 µM, DNA 0.2 µM", "quantity": "ΔTm", "result": "3.8 ± 0.2 °C"}
